Values quoted from earlier work that unrelated publications cite.
Each line is one published result; not all experiments were run side by side. ± gives the spread as reported.
UniProt Q8TBX8, sequence (whole entry, looked up): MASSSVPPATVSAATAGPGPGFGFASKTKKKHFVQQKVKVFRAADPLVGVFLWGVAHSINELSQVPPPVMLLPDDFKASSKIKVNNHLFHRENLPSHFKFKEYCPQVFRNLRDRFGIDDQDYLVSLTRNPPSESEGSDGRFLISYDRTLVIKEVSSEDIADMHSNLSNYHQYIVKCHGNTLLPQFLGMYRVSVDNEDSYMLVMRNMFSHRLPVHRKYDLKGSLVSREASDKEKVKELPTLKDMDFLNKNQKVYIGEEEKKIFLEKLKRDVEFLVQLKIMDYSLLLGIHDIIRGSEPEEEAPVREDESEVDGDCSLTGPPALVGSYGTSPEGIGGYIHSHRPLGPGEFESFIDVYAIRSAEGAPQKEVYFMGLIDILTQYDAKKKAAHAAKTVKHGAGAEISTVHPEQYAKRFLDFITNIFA

| Structure (SMILES) | tested on | test | system | conditions | scale | measurement | value |
| --- | --- | --- | --- | --- | --- | --- | --- |
| CCCC(CCC)C(=O)O |  | small eyes | zebrafish embryo | nominal concentration |  | EC10 | 400 µM |
| N#C[C@@]1(c2ccc3c(N)ncnn23)O[C@H](CO)[C@@H](O)[C@H]1O |  |  | rat |  |  | oral bioavailability | 33% |
| C=CCC(CCC)C(=O)O (stereo not drawn) |  | craniofacial deformation | zebrafish embryo | nominal concentration |  | EC10 | 7 µM |
| CO[C@@H](C)Cn1c(=O)n(C)c2cnc3ccc(-c4cncc(C(C)(C)O)c4)cc3c21 |  |  | human | 325 mg once daily, steady state, day 15 |  | AUC(0-tau) | 5540 ng·h/mL |
| Cc1ccc(C)c(OCCCC(C)(C)C(=O)O)c1 |  |  | healthy volunteers | dose not given |  | AUC | 75000 ng·h/mL |
| Cc1ccsc1C(=CCCN1CCC[C@@H](C(=O)O)C1)c1sccc1C |  |  | mouse | i.p., subcutaneous PTZ seizure test |  | protective index | 30 |
| C=CC(=O)N1CCC([C@@H]2CCNc3c(C(N)=O)c(-c4ccc(Oc5ccccc5)cc4)nn32)CC1 |  |  | human patients | oral, 160 mg once daily, day 1 |  | AUC(0-8h) | 1270 ± 579 ng·h/mL |
| CCCCCCCCCCCCCCCC(=O)N[C@@H](CCC(=O)NCCCC[C@H](NC(=O)[C@H](C)NC(=O)[C@H](C)NC(=O)[C@H](CCC(N)=O)NC(=O)CNC(=O)[C@H](CCC(=O)O)NC(=O)[C@H](CC(C)C)NC(=O)[C@H](Cc1ccc(O)cc1)NC(=O)[C@H](CO)NC(=O)[C@H](CO)NC(=O)[C@@H](NC(=O)[C@H](CC(=O)O)NC(=O)[C@H](CO)NC(=O)[C@@H](NC(=O)[C@H](Cc1ccccc1)NC(=O)[C@@H](NC(=O)CNC(=O)[C@H](CCC(=O)O)NC(=O)[C@H](C)NC(=O)[C@@H](N)Cc1cnc[nH]1)[C@@H](C)O)[C@@H](C)O)C(C)C)C(=O)N[C@@H](CCC(=O)O)C(=O)N[C@@H](Cc1ccccc1)C(=O)N[C@H](C(=O)N[C@@H](C)C(=O)N[C@@H](Cc1c[nH]c2ccccc12)C(=O)N[C@@H](CC(C)C)C(=O)N[C@H](C(=O)N[C@@H](CCCNC(=N)N)C(=O)NCC(=O)N[C@@H](CCCNC(=N)N)C(=O)NCC(=O)O)C(C)C)[C@@H](C)CC)C(=O)O |  |  | overweight or obese adults | 3.0 mg |  | cholecystitis incidence | 0.6% |
| O=C(O)CN1CCN(CC(=O)O)CCN(CC(=O)O)CCN(CC(=O)O)CC1 |  | pH-potentiometry, refers to: logK1H | 0.15 M NaClO4 | 25 °C |  | protonation constant (log) | 9.12 |
| C[Si](C)(C)O[Si](C)(C)C |  |  |  | 28 °C |  | log KAW | 0.27 |
| Cc1cc(-c2nccc3c2ccn3CC(=O)Nc2ccc(-c3cnccn3)cn2)ccn1 |  |  | mouse and rat, bleomycin-induced pulmonary fibrosis | 25 mg/kg mouse, 10 mg/kg rat |  | Ctrough at efficacious dose relative to IC50 | ~0.5 |
| O=C(Nc1ccc(-c2nc(-c3ccc(Cl)cc3)no2)cc1)C1CC(=O)N(Cc2cccnc2)C1 (stereo not drawn) |  |  | aqueous buffer |  |  | kinetic solubility | < 1 µM |
| Cc1ccc(NC(=O)c2ccc(CN3CCN(C)CC3)cc2)cc1Nc1nccc(-c2cncc(-c3oncc3C)c2)n1 |  |  | mouse | 100 mg/kg/day, steady state |  | Cmax | 5060 ng/mL |
| OCc1cc(C(O)CNCCCCCCOCCCCc2ccccc2)ccc1O (stereo not drawn) |  |  | human, plasma | inhaled |  | Tlast | 16 h |
| CC(C)(C)CC(C)(C)c1ccc(O)cc1 |  |  | human liver | 1 µM |  | glucuronidation rate | 7880 pmol/min/mg protein |
| CNC(=O)c1ccc(N2C(=S)N(c3ccc(C#N)c(C(F)(F)F)c3)C(=O)C2(C)C)cc1F |  | inhibitor | human | concentration not given, added: digoxin |  | digoxin plasma exposure increase | 33% |
| C#C[C@]1(CO)O[C@@H](n2cnc3c(N)nc(F)nc32)C[C@@H]1O |  |  | human, plasma | 30 mg, high-fat meal |  | median Tmax | 1.25 h |
| NC[C@H]1O[C@H](O[C@H]2[C@H](O)[C@@H](O[C@H]3O[C@H](CO)[C@@H](O)[C@H](N)[C@H]3O)[C@H](N)C[C@@H]2N)[C@H](N)C[C@@H]1O |  |  | human |  |  | renal clearance | 1.19 mL/min/kg |
| CN(C)C(=N)N=C(N)N |  |  | healthy human subjects |  |  | rate constant k21 | 0.0104 min⁻¹ |
| C[C@]12CC[C@H](O)CC1=CC[C@@H]1[C@@H]2CC[C@]2(C)C(n3cnc4ccccc43)=CC[C@@H]12 |  |  | male CD-1 mice | oral, dose not given |  | half-life | 1.26 h |
| Nc1cc(C(F)(F)F)c(-c2nc(N3CCOCC3)nc(N3CCOCC3)n2)cn1 | PIP4K2C (Homo sapiens, UniProt Q8TBX8) | enzyme activity |  | 10 µM | relative to: untreated | remaining activity | 96% |
| Cc1cc(C)c(CNC(=O)c2cc(Cl)c3c(c2C)O[C@@](C)([C@H]2CC[C@H](N(C)C)CC2)O3)c(=O)[nH]1 |  |  | relapsed/refractory ATLL patients | 200 mg/day, without fluconazole |  | serious TEAE incidence | 8.3% |
| CC(=O)c1c(C)c2cnc(Nc3ccc(N4CCNCC4)cn3)nc2n(C2CCCC2)c1=O |  |  | human | 125 mg, single dose |  | AUC(0-24) | 1730 ng·h/mL |
| C[C@@]1(O)CCC[C@H]1n1c(=O)c(C(F)F)cc2cnc(NC3CCN(S(C)(=O)=O)CC3)nc21 |  |  | mouse | oral, 50 twice daily |  | free Cmax | 1670 nM |
| CCN1CCN(Cc2ccc(Nc3ncc(F)c(-c4cc(F)c5nc(C)n(C(C)C)c5c4)n3)nc2)CC1 |  |  | human | 100 mg single dose, tablet |  | AUC(0-t) | 3880 ng·h/mL |
| CO[C@H]1/C=C/O[C@@]2(C)Oc3c(C)c(O)c4c(O)c(c(/C=N/N5CCN(C)CC5)c(O)c4c3C2=O)NC(=O)/C(C)=C\C=C\[C@H](C)[C@H](O)[C@@H](C)[C@@H](O)[C@@H](C)[C@H](OC(C)=O)[C@@H]1C |  | perpetrator | human | dose not given, added: simvastatin as victim drug |  | victim drug AUC decrease | 87% |
| COC(=O)N[C@H](C(=O)N1CCC[C@H]1c1nc(-c2ccc3c(c2)O[C@@H](c2ccccc2)n2c-3cc3cc(-c4c[nH]c([C@@H]5CCCN5C(=O)[C@@H](NC(=O)OC)C(C)C)n4)ccc32)c[nH]1)C(C)C |  |  | bile duct-cannulated rats | oral, time not given |  | fraction of dose recovered in bile | 8% |

| Structure (SMILES) | tested on | test | system | conditions | scale | measurement | value |
| --- | --- | --- | --- | --- | --- | --- | --- |
| O=c1[nH]cnc2c1ncn2[C@H]1CC[C@@H](CO)O1 |  |  | rat |  |  | oral bioavailability | 9.5% |
| CN[C@@H](C)C(=O)N[C@H]1CN(S(=O)(=O)c2cccc(S(=O)(=O)N3CC[C@H]4CC[C@@H](C(=O)NC(c5ccccc5)c5ccccc5)N4C(=O)[C@@H](NC(=O)[C@H](C)NC)C3)c2)CC[C@H]2CC[C@@H](C(=O)NC(c3ccccc3)c3ccccc3)N2C1=O |  |  | rat | dose not given, 0-48 h | relative to: dose | cumulative faecal excretion unchanged | 94.1% |
| CNC(=O)c1ccc(Nc2ncc(C(F)(F)F)c(NCc3nccnc3N(C)S(C)(=O)=O)n2)cc1 |  |  | patients with KRAS mutant NSCLC | dose not given, treatment-emergent, any grade | relative to: patients | patients with fatigue | 24% |
| CCOc1c([C@H](C)n2nc(C)c3c(N)ncnc32)cc(Cl)c(F)c1[C@@H]1CNC(=O)C1 |  |  | human | oral, 20 mg once daily, added: rifampin | relative to: compound alone | Cmax decrease | 43% |
| c1ccc2cc3c(ccc4ccccc43)cc2c1 |  | slow stirring |  |  |  | logKow | 5.97 |
| O=C(c1cccnc1-c1ccncc1)N1CCC(O)(Cc2ccccc2)CC1 |  |  | human adults | dose not given, open-label period |  | participants with TEAE | 68.8% |
| NC(=O)C(CCCCNC(=O)CN1CCN(CC(=O)[O-])CCN(CC(=O)[O-])CCN(CC(=O)[O-])CC1)NC(=O)OCC1c2ccccc2-c2ccccc21.[Gd+3] (stereo not drawn) |  |  | water | 20 °C, 1.0 T, non-self-assembled |  | relaxivity r1 | 4.95 mM⁻¹ s⁻¹ |
| COC(=O)C1=C(C)NC(C)=C(C(=O)OCC(C)C)C1c1ccccc1[N+](=O)[O-] (stereo not drawn) |  |  |  |  |  | logD | 4.96 |
| Cc1ccc(C(=O)N(CCCN)C(c2nc3snc(C)c3c(=O)n2Cc2ccccc2)C(C)C)cc1 (stereo not drawn) |  |  | solid tumour patients | intravenous, 1 h infusion, 28-day schedule, three-weekly |  | dose with dose-limiting neutropenia | > 30 mg |
| CC(C)(c1ccc(O)cc1)c1ccc(O)cc1 |  |  | rat | dose not given |  | half-life | 3 to 5 h |
| C=CC(=O)NC1CCN(c2ncc3ncnc(Nc4ccc(Oc5ccc6c(c5)ncn6C)c(C)c4)c3n2)CC1 |  |  | patients, NSCLC, HER2-mutant, previously treated | 120 mg once daily, grade ≥3 |  | treatment-related AEs incidence | 17% |
| CN(C(=O)C(C)(C)c1cc(C(F)(F)F)cc(C(F)(F)F)c1)c1cnc(N2C[C@H]3COCCN3C[C@H]2CO)cc1-c1ccc(F)cc1[14CH3] |  |  | human | once-daily dosing |  | time to steady state | 5 to 7 days |
| CC(C)=CCC/C(C)=C/CC/C(C)=C/CC[C@@](C)(O)CCC1=C(C)C(=O)C(C)=C(C)C1=O |  |  | human | oral |  | effective half-life | ~9 h |
| c1ccc2c(c1)ccc1ccccc12 |  | substrate | human liver microsomes |  |  | Vmax | 0.304 nmol/min/mg |
| O=C(NC[C@H]1CN(c2ccc(N3CCOCC3=O)cc2)C(=O)O1)c1ccc(Cl)s1 |  |  | human | Model A fixed |  | absorption rate constant | 0.82 h⁻¹ |
| O=C(CCCCCCC(=O)Nc1ccccc1)NO |  |  | BALB/c nude mouse | oral, 50 mg/kg single dose |  | Cmax | 2000 nM |
| CN(C)C(=O)c1cc2cnc(Nc3ccc(N4CCNCC4)cn3)nc2n1C1CCCC1 |  |  | human | 600 mg |  | steady-state Cmax | 606 to 6170 ng/mL |
| COc1cc(N2CCC3(CCN(C)CC3)CC2)ccc1Nc1ncc(Cl)c(Nc2ccccc2P(C)(C)=O)n1 |  |  | human, feces | dose not given |  | excretion | 68.6% |
| CNC(=O)c1cc(Cl)c(OC(C)(C)C(=O)O)cc1OC[C@@H](O)CN1CCC2(CC1)Cc1cc(Cl)ccc1O2 |  |  | human, plasma | inhaled |  | Tlast | 72 h |
| CC(=O)c1c(C)c2cnc(Nc3ccc(N4CCNCC4)cn3)nc2n(C2CCCC2)c1=O |  |  | female rat | 200 mg/kg |  | Cmax | 586 ng/mL |
| CCCC(C)(C)C(=O)O |  | scoliosis or lordosis | zebrafish embryo | nominal concentration |  | EC10 | 663 µM |
| CNC(=O)n1ccc2cc(Oc3ccnc(NC(=O)c4ccc(C5CCN(CCO)CC5)cc4)c3)c(OCCOC)cc21 |  |  | human |  |  | renal excretion | ~6% |
| CO[C@]1(C(=O)N[C@@H](C)c2ccc(-n3cc(F)cn3)nc2)CC[C@H](c2nc(C)cc(Nc3cc(C)[nH]n3)n2)CC1 |  |  | human | administered alone |  | terminal half-life | 14.6 h |
| COc1cc2c(Oc3ccc4[nH]c(C)cc4c3F)ccnc2cc1OCC1(N)CC1 |  |  | human | 16 mg single dose |  | AUC(0-t) | 1290 ± 384 ng·h/mL |
| Nc1ccn([C@@H]2CS[C@H](CO)O2)c(=O)n1 |  |  | woodchuck | dose not given |  | oral bioavailability | 53% |
| NC1(C(=O)N[C@@H](CCO)c2ccc(Cl)cc2)CCN(c2nc[nH]c3nccc2-3)CC1 |  |  | human |  |  | renal clearance fraction of total | 21% |
| COc1ccc2[nH]c([S+]([O-])Cc3ncc(C)c(OC)c3C)nc2c1 (stereo not drawn) |  |  | human obese subjects | oral tablet, 20 mg once daily, day 6 |  | AUC | 1510 ng·h/mL |

Repeated from above:
| Structure (SMILES) | tested on | test | system | conditions | scale | measurement | value |
| --- | --- | --- | --- | --- | --- | --- | --- |
| CNC(=O)n1ccc2cc(Oc3ccnc(NC(=O)c4ccc(C5CCN(CCO)CC5)cc4)c3)c(OCCOC)cc21 |  |  | human |  |  | renal excretion | ~6% |
| CO[C@]1(C(=O)N[C@@H](C)c2ccc(-n3cc(F)cn3)nc2)CC[C@H](c2nc(C)cc(Nc3cc(C)[nH]n3)n2)CC1 |  |  | human | administered alone |  | terminal half-life | 14.6 h |
| COc1cc2c(Oc3ccc4[nH]c(C)cc4c3F)ccnc2cc1OCC1(N)CC1 |  |  | human | 16 mg single dose |  | AUC(0-t) | 1290 ± 384 ng·h/mL |
